Experimental data of several laboratories.
Compare with care: the assays were run in different laboratories. “And” joins repeats or separate records; there may be more than shown. Numbers after ± are the reported error.
rep main protease: Replicase polyprotein 1ab, main protease (rep, Severe acute respiratory syndrome coronavirus 2, UniProt P0DTD1)

SMILES	target or system	assay	system	setting	quantity	value
NCCCC[C@H](NC(=O)[C@H](CC(=O)O)NC(=O)[C@@H](N)Cc1ccccc1)C(=O)N[C@@H](CO)C(=O)O	rep main protease	enzyme activity, inhibitor	–	–	IC50	63.2 µM
CC(C)(C)OC(=O)NCCOc1ccc(Cl)cc1C(=O)NCC(=O)Nc1ccc([N+](=O)[O-])cc1Cl	rep main protease	SPR	–	0.164 to 100 µM, 25 °C	Kd	no binding
CC1=C(c2ccccc2)C1C(=O)NCc1nc(-c2ccc(Cl)cc2)no1 (stereo not drawn)	rep main protease	enzyme activity, inhibitor, FRET	–	–	IC50	21.2 µM
CC(C)C[C@H](NC(=O)[C@@H](NC(=O)[C@H](C)NC(=O)[C@@H](N)Cc1ccc(O)cc1)C(C)C)C(=O)N[C@@H](CCCNC(=N)N)C(=O)N[C@@H](Cc1c[nH]cn1)C(=O)N[C@@H](CCCCN)C(=O)N[C@@H](CCCNC(=N)N)C(=O)N[C@@H](CCCNC(=N)N)C(=O)N[C@@H](CCC(=O)O)C(=O)N[C@@H](CSCC(=O)N[C@H](Cc1ccc(O)cc1)C(=O)N[C@@H](CC(C)C)C(=O)N[C@@H](CCC(N)=O)C(=O)O)C(N)=O	rep main protease	enzyme activity, inhibitor	–	–	IC50	23.2 µM
CC(C)C(=O)OC[C@H]1O[C@@](C#N)(n2ccc(N)nc2=O)[C@H](O)[C@@H]1O	SARS-CoV-2	viral replication	Calu-3, Gamma	–	EC50	2.6 ± 0.06 µM
CC(C)C[C@@H]1NC(=O)[C@H](C(C)C)NC(=O)[C@H](C)NC(=O)[C@H](Cc2ccc(O)cc2)NC(=O)[C@H](CCC(N)=O)NC(=O)[C@H](CC(C)C)NC(=O)[C@@H](Cc2ccc(O)cc2)NC(=O)C[Se]C[C@@H](C(N)=O)NC(=O)[C@H](CCC(=O)O)NC(=O)[C@H](CCCNC(=N)N)NC(=O)[C@H](CCCNC(=N)N)NC(=O)[C@H](CCCCN)NC(=O)[C@H](Cc2c[nH]cn2)NC(=O)[C@H](CCCNC(=N)N)NC1=O	rep main protease	enzyme activity, inhibitor	–	–	Ki	0.017 µM
O=C(NC1CCN(c2ncnc3[nH]cnc23)CC1)c1cccc(S(=O)(=O)Nc2ccc3[nH]ncc3c2)c1	Replicase polyprotein 1ab, nsp14 (rep, Severe acute respiratory syndrome coronavirus 2, UniProt P0DTD1)	–	–	–	IC50	3.25 µM
O=C(/C=C/c1ccc(O)cc1)O[C@@H]1[C@@H](O)[C@H](Oc2cc(O)c3c(=O)cc(-c4ccc(O)cc4)oc3c2)O[C@H](CO)[C@H]1O	rep main protease	enzyme activity, inhibitor	–	added: fluorogenic substrate	IC50	65.4 µM and 83.4 µM
Cc1cc(C(C#N)c2ccc(Cl)cc2)c(Cl)cc1NC(=O)c1cc(I)cc(I)c1O (stereo not drawn)	rep main protease	enzyme activity, inhibitor, FRET	–	–	IC50	5.3 µM
CC(C)C[C@@H]1NC(=O)[C@H](Cc2ccc(O)cc2)NC(=O)[C@H]([C@@H](C)O)NC(=O)[C@H](Cc2c[nH]c3ccccc23)NC(=O)[C@H](CO)NC(=O)[C@H](Cc2ccc(O)cc2)NC(=O)[C@@H](Cc2ccc(O)cc2)NC(=O)CSC[C@@H](C(N)=O)NC(=O)[C@H](CO)NC(=O)[C@H](Cc2c[nH]c3ccccc23)NC(=O)[C@H](Cc2ccc(O)cc2)NC(=O)[C@H](Cc2ccc(O)cc2)NC(=O)[C@H](CC(=O)O)NC(=O)[C@H](CCCNC(=N)N)NC(=O)CNC1=O	rep main protease	enzyme activity, inhibitor	–	–	IC50	> 50 µM
Brc1nc(CNC23CC4CC(CC(C4)C2)C3)cs1	Matrix protein 2 (Influenza A virus, UniProt P0DOF5, S31N)	proton channel activity, inhibitor	Influenzavirus A, S31N mutant	100 µM	inhibition	38%
CCCCC(CC)CNC(=N)NC(=N)NCCCCCCNC(=N)NC(=N)NCC(CC)CCCC (stereo not drawn)	rep main protease	enzyme activity, inhibitor, FRET	–	–	IC50	22.8 µM
